Measurements gathered from unrelated publications.
Every numbered part comes from another study and shows a few of its results, in no order.

Sample 1
Target: RING finger protein unkempt homolog, zinc fingers 1-6, GST-SBP tag (UNK, Homo sapiens, UniProt Q9C0B0, residues 30-357)
Chain of UniProt Q9C0B0 (30-357, looked up): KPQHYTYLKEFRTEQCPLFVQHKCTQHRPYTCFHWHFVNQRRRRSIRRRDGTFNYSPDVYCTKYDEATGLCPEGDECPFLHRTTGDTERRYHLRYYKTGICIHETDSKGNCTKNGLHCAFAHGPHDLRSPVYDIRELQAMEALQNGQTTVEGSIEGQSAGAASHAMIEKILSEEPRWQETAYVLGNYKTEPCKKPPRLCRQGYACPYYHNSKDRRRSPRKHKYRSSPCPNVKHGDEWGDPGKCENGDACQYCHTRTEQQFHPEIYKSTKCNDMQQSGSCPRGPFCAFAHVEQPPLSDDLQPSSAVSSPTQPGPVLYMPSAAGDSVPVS
Method: RNA Bind-n-Seq
Form: RNA
Matrix: in vitro
Tested at: not given
Notes: RNA with constant flanks, human-mouse chimeric sites, ends assumed
Reference: input RNA pool
Reading: higher = stronger binding
Measurement: bound/input enrichment
Shared flanks, not repeated: GGGAGUUCUACAGUCCGACGAUC … CAACAGAGGAUUGAGCAUCA
UGGCGCCUGCGCUCCCCACUCGUGUUUUUAAGUGUAUUUUUAUAAGAUACAUGUAUUUACAAUUGAGUUUUUGAUUAAUAAUGCUGAAAUGCUACUGGAGAUUAUGAAAAAUGUUUCAAU: 0.147 ratio
AAAGUGGACUAUGGCGAGUACAUGGAUAAAAACAAUGUGAGGCGACAAGCAACAACAAUCAUAGCUGAUAACAUUAUAUUUCUGAGUGACCAGACGAAAGAAAAGGCAUAGAACGGAUGA: 1.37 ratio
CUUAAUGUUAAUAUUUUUGAAUAAAUGUAAAACCAUGGUCUGCUUUUGGUACAACACGCAUUAGCGAAAGGUUAAGUUUUGUUUUCCACUGAAGUACUAUUUAACAUCUCAGAAAAAAAC: 0.505 ratio
AGAUUCCCCCUCCUGAGACCUCCUCCGAAGUUGGAGUCUCUUACAGAUGCCUCAUCCCCUGUUAGCGUUUUAGUUUGGACCACCCAGCCUUGGACGAUUCCCGCCAACCAGGCAAUUUGC: 0.821 ratio
GCGGCAGAAUCAUGGAGGACAUAAUGCACUUGCCCAGAGCGCGCGUCAACGCCAGCAUGUUACCACAGUAUAUCGACAAGCCUGUCUGCUUCGUGGGGAAGCUGGAAAAGAUUCAUCCCA: 0.132 ratio
GCGGCAGAAUCAUGGAGGACAUAAUGCAGCUCCCCAAAGCGCGCGUCAACGCCAGCAUGUUACCACAAUUCAUCGACAAGCCUGUCUGCUUCGUGGGGAAGCUGGAAAAGAUUCAUCCCA: 0.125 ratio
GUGACUGGUGUUAAGAUUUCCCCUCAGCAAAGAAGUGCAGUAGUCACCAUAAUUCCAUCUGUGGUGAGUGCCAGUCAGAUAAAAGAGCUGGUCCCAGAACUCAGUUUAGACAUGGGAACU: 0.348 ratio
CUUAAUGUUAAUAUUUUUGAAUAAAUGAAGCUAAAAUGUCUGCUUUUGGUACUACAUGCAUUAAUAAAAGGUUAAGUUUUGUUUUCCACUGAAGUACUAUUUAACAUACAUCUCAGAAAC: 0.254 ratio

Sample 2
Target: Fragile X messenger ribonucleoprotein 1, C-terminal low-complexity region (Fmr1, Mus musculus, UniProt P35922)
Method: RNA Bind-n-Seq
Form: RNA
Matrix: in vitro
Tested at: 200 nM
Notes: whole 134-nt RNA, ends assumed
With: 150 mM LiCl
Reference: input library
Reading: higher = stronger binding
Measurement: log2 enrichment
All molecules: 7-deaza-guanosine replaces G
Shared flanks, not repeated: GGGAGUUCUACAGUCCGACGAUC … UGGAAUUCUCGGGUGUCAAGG
UGGCCCUGGUGGCAUGCGGGGAGGAAGAGGUGGCCUCAUGGAUCGUGGUGGUCCCGGUGGAAUGUUCAGAGGUAGCCGUGGUGGAGACAG: -0.47
AAGUCCUGUGCUACACAUCGUAUGUACCGAAUCGGAAAAAAAGGUUUUUUUGGAGGAAAGUAUUAUGUUACGCCGUUCGGAUCUGCACUU: -3.19
CUCAAGUCCUGUGCUACACAUCGUAUGUACCGAAUCGGCCCGGGCCCGGCCCGGAAAGUAUUAUGUUACGCCGUUCGGAUCUGCACUUCC: 0.574
CACAGACAACACGCACCCACACAGACACAGAGGGAAGGGGUAGGGAUGGGGACAGGGUGCACAGCAGGGCGGGGUAGGACCCCAGCCCCU: -0.673
GCAGGAAGUAAAAACAAAUGGAAAUGCUUCGGAUAGUGGCAGGGGUGGGGGUUGCUAAGGAAAGGGUGGGAUGGGAGUGGGUACAGAGUU: 1.29
UAACUUUAGAGCAGGAUCUGAUGGAUAUGGCAGUGGACGUGGAUUUGGGGAUGGCUAUAAUGGGUAUGGAGGAGGACCUGGAGGUGGCAA: -0.492
UGUGCUACACAUCGUAUGUACCGAAUCGGGGUUUUUUUGGGGUUUUUUUGGGUUUUUUUGGGAAAGUAUUAUGUUACGCCGUUCGGAUCU: 1.35
UAACUUUAGAGGAGGAUCUGAUGGAUAUGGCAGUGGACGUGGAUUUGGGGAUGGCUAUAUUGGGUAUGGAGGAGGACCUGGAGGUGGCAA: 0.0692

Sample 3
Target: RNA binding protein fox-1 homolog 2, RRM domain, GST-SBP tag (RBFOX2, Homo sapiens, UniProt O43251-10, residues 100-194)
Method: RNA Bind-n-Seq
Form: RNA
Matrix: in vitro
Tested at: 365 nM
Notes: natural RNA segment, single round, ends assumed
Reference: no-protein control
Reading: higher = stronger binding
Measurement: RBNS enrichment (R)
Shared flanks, not repeated: GGGAGUUCUACAGUCCGACGAUC … UGGAAUUCUCGGGUGCCAA
UUUGUCUUUUACUUAAGGGUACUAAGCAAGGUCCACUCUAGUGUAGCUGAAGAGAAUGCAUAUUUGGCUACACUAUUUCUGUUUACUGUAUUUUGCUUCCUACUUUAUGU: 12.7
ACCAGGCCCCAGAGCAGACUCAUCCGGGGUGGCAGGUCCCUAAAGCAAGGAAGGCCUCACACUGUCCAGCAUACUCCAGCCUGAAUUGCCUACUGGGUUCUCAGGGGGCA: 0.496
UCUGGAAUUAUCUACUAUCCCAAUCCACUACCCUCACCUGGCAAUAUUUGUCUGUUUUUGUUUGUUUGUUUGUUUGUUUUUGUCUUUUGCCAGUUUGAAUUAGAAGGCAA: 18.1
UAUGUAUUCUUCUCUACCGUAUAACACACUGAAACUGUAUCUACUUGCUGUGUUGCAAUAUUUUGCUGCUGGACUUUGACCUACUUGUAUUAUGCAGAAAGUUAAUGCAG: 0.505
AAAGUGUUAGUGAGGGUUAAGCAGGAAUACUAACUGCUCAUUUCUCAGUUCAGUGGAUAUAUGUAUGUAGAGAAAGAGAGGUAAUAUUUUGGGCUCUUAGCUUAGUCUGU: 1.09
UUGUAUGUGGAAUUUGUCCCAUGUGCUUGCUAAAAUGUUUGGGGAUCUCCUCACACUGGUAAUGUCUUUCCUGUUAGAGAGGUUUAUGCUACCACUUCGCAUUUCAUCUG: 1.27
AGCAGCUGCAGCAAAAUCUAGGGGUGUAAGUGUAUCAGGACUUAUGUGACUUAUAUUUUGGGGAGAUGAGGGUUGGGUUUUUUUUUUAAUGCUACGUGACAGUUUGAAAC: 0.87
CGGCCCCAGAGCUAAAAGCACCAGAGAAAAUCAAAUGCUUCCUACUCAGCGUGACCCAACUUUUCUAGUGUGCCACGGCCCCACCACCUCCUGCAGUACCCACACCAUCA: 0.368

Sample 4
Target: Histone acetyltransferase KAT6A, both winged helices, GST fusion (KAT6A, Homo sapiens, UniProt Q92794, residues 1-181)
Method: protein binding microarray
Form: double-stranded DNA, one strand shown
Matrix: in vitro
Tested at: not given
Notes: 8-mer, flanks averaged, mean of 2 arrays, mostly near background
Reference: not given
Reading: higher = stronger binding
Measurement: E-score
Target sequence (chain): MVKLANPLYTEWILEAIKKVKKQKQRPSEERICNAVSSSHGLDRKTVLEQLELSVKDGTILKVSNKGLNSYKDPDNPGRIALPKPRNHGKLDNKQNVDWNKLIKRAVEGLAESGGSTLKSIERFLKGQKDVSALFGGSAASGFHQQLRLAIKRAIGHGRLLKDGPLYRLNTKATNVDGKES
CACCCATA: -0.144
TCGGATAA: 0.116
AAAAGGTT: -0.106
ATCCGCCA: 0.103
ACTCAGTC: -0.183
CCTATAGG: -0.139
ATGTAGTG: -0.183
GGAAAACC: 0.085
GGCTACGA: 0.0857
AATAAAGA: -0.174
CAACCAGC: -0.0363
ACGGTCTA: 0.167
AACTGCAG: -0.0993
CCGTCAAA: 0.248
GCCCACTA: -0.288
AATAGGTG: -0.297
CTATTCGC: -0.0165
ATGATCCG: 0.21
